Assay results gathered from unrelated publications.
Parts stem from different laboratories: compare values within a part only.

Block 1
Target: Interferon regulatory factor 7, full length, phosphomimetic (IRF7, Homo sapiens, UniProt Q92985, residues 1-503, S471D/S472D/S475D/S476D/S477D/S483D/S484D/S487D)
Technique: protein-binding microarray
Form: double-stranded DNA, one strand shown
Sample: in vitro
Tested at: 2200 nM top
Setting: 60-bp whole probe
Added: salmon DNA 0.4 mg/ml
Baseline: random background probes
Direction: higher = stronger binding
All sequences stand within: GCCTAGCAC … GTCTTGATTCGCTTGACGCTGCTG
Residues (chain): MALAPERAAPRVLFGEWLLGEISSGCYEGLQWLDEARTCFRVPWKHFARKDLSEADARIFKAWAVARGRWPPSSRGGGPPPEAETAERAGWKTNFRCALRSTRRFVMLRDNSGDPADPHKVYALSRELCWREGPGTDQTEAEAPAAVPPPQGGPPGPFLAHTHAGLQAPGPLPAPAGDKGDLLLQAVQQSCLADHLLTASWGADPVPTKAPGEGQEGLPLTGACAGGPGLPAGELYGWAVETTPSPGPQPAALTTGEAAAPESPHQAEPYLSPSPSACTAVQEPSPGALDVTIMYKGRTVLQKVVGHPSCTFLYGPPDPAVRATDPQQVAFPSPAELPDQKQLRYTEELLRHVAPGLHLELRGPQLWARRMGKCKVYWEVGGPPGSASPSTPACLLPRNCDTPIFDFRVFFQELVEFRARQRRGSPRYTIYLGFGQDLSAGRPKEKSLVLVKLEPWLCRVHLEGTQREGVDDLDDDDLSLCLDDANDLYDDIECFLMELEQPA
| Oligonucleotide | fitted relative affinity [z-score] |
| --- | --- |
| GACGACTTCAGACTGGAGACGTGCTAG | -0.21 |
| GACGGTATCCTTATCCGGACGTGCTAG | 0.735 |
| GACGGAATGGGGTTTCGGGACGTGCTA | 1.13 |
| GACGGTCTGGGGACTGGGGACGTGCTA | -0.459 |
| TTAGGACTGGGGACTGGGTAAGTGCTA | -1.04 |
| GACGGACTGGGACTGGGGATGTGCTAG | -0.674 |
| GGCTTTGACTCTTTCTGTCAGTGCTAG | 0.61 |
| GACAGTCTCGGTTTCGGGACGTGCTAG | 4.67 |
| GACGGATTCGGGACTGGGGACGTGCTA | 0.383 |
| GACGGTATCGGACTGGGAACGTGCTAG | -0.46 |
| TTAGGTATCGGACCGGGTTAGTGCTAG | -0.238 |
| GACGGACTGCTTATCCCGACGTGCTAG | 0.287 |
| TTGTTTCTAATATTCTGCTTGTGCTAG | 1.68 |
| AAAATTTTGCTTCTAGAACAGTGCTAG | 0.0576 |
| TTAAGACTGGGGTATCGGTTAGTGCTA | -0.206 |
| TTAGATATCCTTTTCCTTTAGTGCTAG | 1.77 |
| TCAGCTTTACTGATGGCACTGTGCTAG | 0.29 |
| GGGGATAAACTTAATGGATGGTGCTAG | -0.438 |
| TTAGAACTGGGGACTAGATTAGTGCTA | -0.389 |

Block 2
Target: RNA binding protein fox-1 homolog 2, RRM domain, GST-SBP tag (RBFOX2, Homo sapiens, UniProt O43251-10, residues 100-194)
Technique: RNA Bind-n-Seq
Form: RNA
Sample: in vitro
Tested at: 365 nM
Setting: natural RNA segment, single round, ends assumed
Baseline: no-protein control
Direction: higher = stronger binding
| Oligonucleotide | RBNS enrichment (R) |
| --- | --- |
| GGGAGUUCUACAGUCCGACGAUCGUUAGCAUGUGCAAUAGGAACUACUGGUUUGCUGUGUAAAUGGAUGUCAGGAUCCAGCAAAACUACUGCUUUCUUCUCCAAAGACAUGUGGGAGCCUUCAAUCCUCAGUGUGGAAUUCUCGGGUGCCAA | 4.41 |
| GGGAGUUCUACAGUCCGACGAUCUGAACACGGCCAAAAUCCAUAAAGAUUAUAAAAGCAAACUAAGUUGUGAAGCUAUAGUACAUGUAGGCAUUUAGUUAAGUAUAGCAAUUCAAACUGACCUGCAUCCAUCCUGGAAUUCUCGGGUGCCAA | 1.32 |
| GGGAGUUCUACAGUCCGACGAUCUGAUUUUUUUGGUUAAAACUUUUUCAUUGAUCUGAAUUGCUUAAAUUGCAUAUAUUGUAAAAUAGAGUCAGAUGUAUAUUUUAAAAUAAUUUCAGCUGACUUUCCUCUGAUGGAAUUCUCGGGUGCCAA | 0.695 |
| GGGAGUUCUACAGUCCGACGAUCCUCUCGGGAAUGCUUUUCCAGCAGGGAGCUCUUCCCCUGAAGGAGACUAGCUUGCCUUGGUUUUGAUGUGUGUGGCCUCAGACGUGAUCAUUUCCCAUCCCGCUGUGUCUUGGAAUUCUCGGGUGCCAA | 0.971 |
| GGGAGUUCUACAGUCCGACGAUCACCUUUUAGGCAGUUUUUCUGCAUUGAUUUCAUGAAAGAAGCUAUACAUUAGCUAAUACUAACCACAUAGAAUAUCAGACUUAGAUACGUGAAUAAGGAUCCUGUGGGCAUGGAAUUCUCGGGUGCCAA | 0.899 |
| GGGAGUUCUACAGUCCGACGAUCUUCCCCUGGGUCAGUGAUGGAAAGGGGUUAACUUCAGCCAGGAUUGAUGGCAGCUGAGGGAAAUUCUUGCCCAACUAAACCCAGAACUCAAACUUAACAUUAGAAAAUAAUGGAAUUCUCGGGUGCCAA | 0.798 |
| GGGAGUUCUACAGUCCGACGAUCCAAAGUACAGAUUUUUUACAUUUUAGAGGAAGAGCACCUUGUAUAGUAAGUCUAAGUCAAGCAAGACUUUGUGAAUUUGUGACAAGUUUGCACUUACAAAAUCAUGUAAAUGGAAUUCUCGGGUGCCAA | 0.753 |
| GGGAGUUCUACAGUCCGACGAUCAGACACUGCCGGGCCUCCCUCCCGGGGGCACUGCCUGAAGGCGAGUGUGGGCAUAGCAUUAGCUGCUUCCUCCCCUCCUGGCACCCACUGUGGCCUGGCAUCGCAUCGUGUGGAAUUCUCGGGUGCCAA | 0.67 |

Block 3
Target: Centromere-binding protein 1, full length, N-terminal tag (CBF1, Saccharomyces cerevisiae, UniProt P17106, residues 1-351)
Chain of UniProt P17106 (whole entry, looked up): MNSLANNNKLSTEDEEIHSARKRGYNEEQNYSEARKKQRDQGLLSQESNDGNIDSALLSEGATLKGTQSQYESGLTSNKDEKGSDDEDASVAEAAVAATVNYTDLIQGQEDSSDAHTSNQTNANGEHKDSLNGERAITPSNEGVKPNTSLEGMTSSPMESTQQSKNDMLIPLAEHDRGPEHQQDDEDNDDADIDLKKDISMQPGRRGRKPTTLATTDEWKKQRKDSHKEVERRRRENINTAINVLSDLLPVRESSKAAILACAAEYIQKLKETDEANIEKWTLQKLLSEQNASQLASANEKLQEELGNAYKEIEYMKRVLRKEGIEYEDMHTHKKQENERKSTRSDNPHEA
Technique: protein-binding microarray
Form: double-stranded DNA, one strand shown
Sample: in vitro
Tested at: 0.8 µM
Setting: whole 60-bp probe, no competitor
Direction: higher = stronger binding
| Oligonucleotide | fluorescence intensity |
| --- | --- |
| GAAGGCTGATGACTCCTCATGATAACTCATGTGTAGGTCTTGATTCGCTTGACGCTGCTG | 531 a.u. |
| TGTACGAAGCTATGTCATCAGTCTATAGTAGTTAGGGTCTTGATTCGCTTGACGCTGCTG | 535 a.u. |
| CTAACATAACTATAACGTGTGTGAGGGCGAGCATTCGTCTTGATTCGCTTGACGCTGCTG | 565 a.u. |
| TGTACGAAGCTATAACAGCTGATTATAGTAGTTAGGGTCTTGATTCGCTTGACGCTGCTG | 582 a.u. |
| TGTACGAAGCTATAGGTGGCGATTATAGTAGTTAGGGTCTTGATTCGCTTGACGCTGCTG | 504 a.u. |
| GAACCGAATCTATGTCACGAAGTACATATATAATAGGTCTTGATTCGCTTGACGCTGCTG | 674 a.u. |
| GAATTCTGATCCAACTGATGCATCAGTTATAGCTAGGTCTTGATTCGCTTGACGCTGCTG | 509 a.u. |
| CTACGTTCTCGTCATCAGGTTGTATGGGCTAGTTTCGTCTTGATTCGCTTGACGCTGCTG | 544 a.u. |
| GAAAGGGCTCTGAGTCTCGTGGTAGTGGAATCCTAGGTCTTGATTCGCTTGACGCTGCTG | 655 a.u. |
| GAATAATAGAATTTTCTGATGTTTATCTTTTTTTAGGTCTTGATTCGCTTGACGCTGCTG | 530 a.u. |
| GAATCGCTATATTGTCACACGCATTTGAATTAGTAGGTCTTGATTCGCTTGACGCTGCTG | 687 a.u. |
| CCTAACTACTATAACCTCGGTCAATAGCTTCGTACAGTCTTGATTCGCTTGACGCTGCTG | 478 a.u. |
| TGTACGAAGCTATGACGCATGATTATAGTAGTTAGGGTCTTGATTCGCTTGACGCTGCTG | 577 a.u. |
| CTAAAGAGAGGATGCCACGTTTTCCCGACGGCTTTCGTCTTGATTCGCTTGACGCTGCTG | 524 a.u. |
| CTATGAAAGAGCCATGGTCACGTTGGGCACATTTTCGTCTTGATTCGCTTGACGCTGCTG | 2390 a.u. |
| CTAGGAAATCATCTGCACGTATGCTATATCGAATTCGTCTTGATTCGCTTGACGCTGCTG | 567 a.u. |
| GAATTTTAAACCCACGTGTGAACGCCAAGATTGTAGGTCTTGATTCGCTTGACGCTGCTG | 3740 a.u. |
| GAAACGAAAATCTATCAGCTGAACATCTAGACTTAGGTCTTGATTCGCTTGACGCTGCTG | 594 a.u. |
| CTATTAACAATTGATAACGTGCCCTTTATTGAATTCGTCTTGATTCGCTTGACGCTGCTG | 1120 a.u. |

Block 4
Target: Ras GTPase-activating protein-binding protein 1, C-terminal RGG region (G3BP1, Homo sapiens, UniProt Q13283)
Chain of UniProt Q13283 (whole entry, looked up): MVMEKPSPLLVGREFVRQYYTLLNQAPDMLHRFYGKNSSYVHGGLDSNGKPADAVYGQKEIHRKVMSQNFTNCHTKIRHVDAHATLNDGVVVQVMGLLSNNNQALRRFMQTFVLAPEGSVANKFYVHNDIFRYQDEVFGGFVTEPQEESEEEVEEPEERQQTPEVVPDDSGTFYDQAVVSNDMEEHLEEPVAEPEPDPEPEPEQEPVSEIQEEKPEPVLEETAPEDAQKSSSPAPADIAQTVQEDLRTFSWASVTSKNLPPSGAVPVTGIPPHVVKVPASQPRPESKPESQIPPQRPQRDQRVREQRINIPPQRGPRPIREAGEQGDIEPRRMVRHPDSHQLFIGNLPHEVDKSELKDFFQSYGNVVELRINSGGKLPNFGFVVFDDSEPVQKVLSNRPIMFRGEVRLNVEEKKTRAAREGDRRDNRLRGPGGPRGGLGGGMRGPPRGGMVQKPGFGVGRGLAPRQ
Technique: RNA Bind-n-Seq
Form: RNA
Sample: in vitro
Tested at: 1 µM
Setting: whole 134-nt RNA, ends assumed
Added: 150 mM KCl
Baseline: input library
Direction: higher = stronger binding
| Oligonucleotide | log2 enrichment |
| --- | --- |
| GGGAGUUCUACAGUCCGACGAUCUCAAGUCCUGUGCUACACAUCGUAUGUACCGAAUCGGGCCGGGCCGGGGCCGGGGAAAGUAUUAUGUUACGCCGUUCGGAUCUGCACUUCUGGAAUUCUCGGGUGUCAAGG | 0.155 |
| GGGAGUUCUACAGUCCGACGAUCUAAUUUUAGAGGAGGAUCUGAUGGAUAUGGCAGUGGACGUGGAUUUGGGGAUGGCUAUAAUGGGUAUGGAGGAGGACCUGGAGGUGGCAAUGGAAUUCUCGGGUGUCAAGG | -0.848 |
| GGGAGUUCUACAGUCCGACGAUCUUCUCUGCCGGCUCAGAGGAGAGGAGACGCCGUGAGCGGGACGACCAGAUGUACCGAGAGCGGCUGCGCACCUUGCUGGUCAUCGCGGUUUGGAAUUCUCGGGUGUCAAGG | -1.8 |
| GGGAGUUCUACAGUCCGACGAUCUAACUUUAGAGGAGGAUCUGAUGGAUAUGGCAGUGGACGUGGAUUUGGGGAUGGGUAUAAUGGGUAUGGAGGAGGACCUGGAGGUGGCAAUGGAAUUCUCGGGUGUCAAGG | -0.413 |
| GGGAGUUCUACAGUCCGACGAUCCUCAAGUCCUGUGCUACACAUCGUAUGUACCGAAUCGGUGGUUUUUGGAAAGGAAAGUAUUAUGUUACGCCGUUCGGAUCUGCACUUCCAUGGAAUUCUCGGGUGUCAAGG | -0.967 |
| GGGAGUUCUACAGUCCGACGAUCGCAGGAAGUAAAAACAAAUGGAAAUGCUUCGGAUCGUGGCAGGGGUGGGGGUUGCUAAGGAAAGGGUGGGAUGGGAGUGGGUAAAGAGUUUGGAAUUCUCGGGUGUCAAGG | 2.42 |
| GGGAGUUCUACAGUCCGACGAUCCCUCAAGUCCUGUGCUACACAUCGUAUGUACCGAAUCGGGGUGGGUGGGGUGGAAAGUAUUAUGUUACGCCGUUCGGAUCUGCACUUCCAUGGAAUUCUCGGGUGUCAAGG | 1.15 |
| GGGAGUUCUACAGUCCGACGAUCUAACUUUAGAGGAGGAUCUGAUGGAUAUGGCAGUGGACGUGGAUUUGGGGAUGGCUAUAAUGGGUAUGGAGGAGGUCCUGGAGGUGGCAAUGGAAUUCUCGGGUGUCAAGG | -0.504 |
| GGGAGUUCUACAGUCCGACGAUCGUCCUGUGCUACACAUCGUAUGUACCGAAUCGGGGAAAAAGGGGUUUGGGGUUUGGGGAAAGUAUUAUGUUACGCCGUUCGGAUCUGCACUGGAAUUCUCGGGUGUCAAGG | 3.13 |

Excerpt of the above (block 2):
| Oligonucleotide | RBNS enrichment (R) |
| --- | --- |
| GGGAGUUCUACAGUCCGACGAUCCUCUCGGGAAUGCUUUUCCAGCAGGGAGCUCUUCCCCUGAAGGAGACUAGCUUGCCUUGGUUUUGAUGUGUGUGGCCUCAGACGUGAUCAUUUCCCAUCCCGCUGUGUCUUGGAAUUCUCGGGUGCCAA | 0.971 |
| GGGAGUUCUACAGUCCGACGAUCACCUUUUAGGCAGUUUUUCUGCAUUGAUUUCAUGAAAGAAGCUAUACAUUAGCUAAUACUAACCACAUAGAAUAUCAGACUUAGAUACGUGAAUAAGGAUCCUGUGGGCAUGGAAUUCUCGGGUGCCAA | 0.899 |
| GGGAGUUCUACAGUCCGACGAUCUUCCCCUGGGUCAGUGAUGGAAAGGGGUUAACUUCAGCCAGGAUUGAUGGCAGCUGAGGGAAAUUCUUGCCCAACUAAACCCAGAACUCAAACUUAACAUUAGAAAAUAAUGGAAUUCUCGGGUGCCAA | 0.798 |
| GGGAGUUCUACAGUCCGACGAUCCAAAGUACAGAUUUUUUACAUUUUAGAGGAAGAGCACCUUGUAUAGUAAGUCUAAGUCAAGCAAGACUUUGUGAAUUUGUGACAAGUUUGCACUUACAAAAUCAUGUAAAUGGAAUUCUCGGGUGCCAA | 0.753 |
| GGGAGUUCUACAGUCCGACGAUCAGACACUGCCGGGCCUCCCUCCCGGGGGCACUGCCUGAAGGCGAGUGUGGGCAUAGCAUUAGCUGCUUCCUCCCCUCCUGGCACCCACUGUGGCCUGGCAUCGCAUCGUGUGGAAUUCUCGGGUGCCAA | 0.67 |
